Published values collected from several papers.
Several values in a cell are separate wells, animals, samples, runs or records. Numbers after ± are the reported error. Values after ≈ are worked out from the molar mass of the structure shown.
Organism: Staphylococcus aureus

For `CCCCCCCCCCCc1c([N+](=O)[O-])oc2ccc3ccccc3c12`, the MIC90 was > 32 µg/mL (REMA).
`CC[C@H](C)[C@H](NC(=O)[C@H](C)N)C(=O)N[C@@H](CO)C(=O)NCC(=O)N[C@@H](CO)C(=O)N[C@@H](CC(C)C)C(=O)N[C@H](C(=O)N[C@H](C(=O)N[C@@H](CC(C)C)C(=O)N[C@@H](Cc1ccccc1)C(=O)NCC(=O)N[C@@H](Cc1ccc(O)cc1)C(=O)N[C@@H](CCCNC(=N)N)C(=O)N[C@@H](CCCCN)C(=O)N[C@@H](CCCNC(=N)N)C(=O)N[C@@H](CCCCN)C(=O)N[C@@H](CCCNC(=N)N)C(=O)N[C@@H](CCCCN)C(N)=O)[C@@H](C)O)C(C)C` gave an FICI of 0.08 (checkerboard; unit not given, with: oritavancin; lower means synergy).
Under “inhibition zone diameter”, `CN[C@H](CC(C)C)C(=O)N[C@H]1C(=O)N[C@@H](CC(N)=O)C(=O)N[C@H]2C(=O)N[C@H]3C(=O)N[C@H](C(=O)N[C@H](C(=O)O)c4cc(O)cc(O)c4-c4cc3ccc4O)[C@H](O)c3ccc(c(Cl)c3)Oc3cc2cc(c3O[C@@H]2O[C@H](CO)[C@@H](O)[C@H](O)[C@H]2O[C@H]2C[C@](C)(N)[C@H](O)[C@H](C)O2)Oc2ccc(cc2Cl)[C@H]1O` is recorded as 13 mm (ATCC 25923; 128 µg per disk).
For `CCC[C@@H]1C[C@@H](C(=O)N[C@@H]([C@H]2O[C@H](SC)[C@H](O)[C@@H](O)[C@H]2O)[C@H](C)Cl)N(C)C1`, the MIC90 was > 32 µg/mL.
`OB(O)CSc1nc2ccccc2n1Cc1ccc(C(F)(F)F)cc1C(F)(F)F` has an FIC index of 0.19 (checkerboard; NRS21; with: oxacillin).
`CC[C@H](C)[C@H](NC(=O)[C@H](Cc1c[nH]c2ccccc12)NC(=O)[C@@H](NC(=O)[C@H](Cc1ccc(O)cc1)NC(=O)[C@@H]1CCCN1C(=O)[C@@H](NC(=O)[C@H](C)N)[C@@H](C)CC)[C@@H](C)CC)C(=O)N[C@@H](Cc1ccc(O)cc1)C(=O)N[C@@H](CCCNC(=N)N)C(=O)N[C@@H](CC(C)C)C(=O)N[C@@H](CC(C)C)C(=O)N[C@@H](CCCNC(=N)N)C(=O)N[C@@H](CCCCN)C(=O)NCC(N)=O` gave an MBC of > 15 µM (ATCC 35556; 18 h, 37 °C).
With `CNC(C)C1CCC(N)C(OC2C(N)CC(N)C(OC3OCC(C)(O)C(NC)C3O)C2O)O1` (stereo not shown) the MLC was 4 ± 1 µg/mL (≈ 8.38 µM) (broth microdilution).
With `CCc1c([N+](=O)[O-])oc2ccc3ccccc3c12` the MIC90 was 2 µg/mL (≈ 8.29 µM) (REMA).
`CC[C@H](C)[C@H](NC(=O)[C@H](CCCNC(=N)N)NC(=O)[C@H](CCCNC(=N)N)NC(=O)[C@@H](N)CCCNC(=N)N)C(=O)N[C@@H](CO)C(=O)N[C@@H](Cc1ccccc1)C(=O)N[C@@H](CC(C)C)C(=O)NCC(=O)N[C@@H](CO)C(=O)N[C@@H](CCCCN)C(=O)N[C@H](C(=O)N[C@H](C(=O)N[C@H](C(=O)N[C@@H](CCCNC(=N)N)C(=O)N[C@@H](CCCNC(=N)N)C(=O)N[C@@H](CCCCN)C(=O)N[C@@H](CCCNC(=N)N)C(N)=O)C(C)C)C(C)C)C(C)C` gave an FICI of 0.08 (checkerboard; unit not given, with: oritavancin; lower means synergy).
`CCC(CCCCCCCCCCc1cc(O)cc(O)c1)C(C)C` (stereo not shown) has an IC50 of > 200 µM (bacterial growth; MRSA USA300).
For `C=CC[C@@H]1c2ccc(OC)c(OC)c2CN2CCc3cc4c(cc3[C@H]12)OCO4`, “relative wound size” read 1.05 and 1.36 and 0.97 and 0.72 and 1.52 (P2rx7 A312V/A312V mice, skin wound infection; dose not given, day 2; baseline: day 0).
`C[C@H]1COc2c(N3CCN(C)CC3)c(F)cc3c(=O)c(C(=O)O)cn1c23` has an MIC90 of 32 µg/mL (≈ 88.6 µM).
With `Cc1c2c(nn1C)CSCc1cc(n(C)n1)CSc1cc(c3ccccc3c1)OCCCc1c(C(=O)O)n(C)c3c-2c(Cl)ccc13` the fold change was 0.0294 (label-free quantitative proteomics, measured: SAOUHSC_02073 protein; SA113; concentration not given; baseline: untreated control).
For `CN[C@H](CC(C)C)C(=O)N[C@H]1C(=O)N[C@@H](CC(N)=O)C(=O)N[C@H]2C(=O)N[C@H]3C(=O)N[C@H](C(=O)N[C@H](C(=O)O)c4cc(O)cc(O)c4-c4cc3ccc4O)[C@H](O)c3ccc(c(Cl)c3)Oc3cc2cc(c3O[C@@H]2O[C@H](CO)[C@@H](O)[C@H](O)[C@H]2O[C@H]2C[C@](C)(N)[C@H](O)[C@H](C)O2)Oc2ccc(cc2Cl)[C@H]1O`, the biofilm inhibition was 95.2% (ATCC 33591 MRSA; 1×MIC).
`CC(=O)N[C@H]1[C@@H](O[C@@H]2O[C@H](C[C@@H](O)[C@H]3O[C@@H](n4ccc(=O)[nH]c4=O)[C@H](O)[C@@H]3O)[C@H](O)[C@H](O)[C@H]2NC(=O)/C=C/CCCCCCCCCC(C)C)O[C@H](CO)[C@@H](O)[C@@H]1O` gave an MIC90 of 10.5 ± 0.379 µg/mL (≈ 12.6 µM) (resazurin microplate; 71080 (NR-46418)).
For `CC[C@H](C)[C@H](NC(=O)[C@H](Cc1c[nH]c2ccccc12)NC(=O)[C@@H](NC(=O)[C@H](Cc1c[nH]c2ccccc12)NC(=O)[C@@H]1CCCN1C(=O)[C@@H](NC(=O)[C@H](C)N)[C@@H](C)CC)[C@@H](C)CC)C(=O)N[C@@H](Cc1c[nH]c2ccccc12)C(=O)N[C@@H](CCCNC(=N)N)C(=O)N[C@@H](CC(C)C)C(=O)N[C@@H](CC(C)C)C(=O)N[C@@H](CCCNC(=N)N)C(=O)N[C@@H](CCCCN)C(=O)NCC(N)=O`, the MBC was 3.75 µM (≈ 6.78 µg/mL) (ATCC 19609; 18 h, 37 °C).
`O=[N+]([O-])c1cc2c(ccc3c2ccc2cc([N+](=O)[O-])oc23)o1` gave an MIC90 of > 32 µg/mL (REMA).
For `COc1ccc(CC2NCCc3cc(OC)c(OC)cc32)cc1OC.Cl` (stereo not shown), the MIC50 was 1540 µM (24 h, 37 °C).
With `CN[C@H](CC(C)C)C(=O)N[C@H]1C(=O)N[C@@H](CC(N)=O)C(=O)N[C@H]2C(=O)N[C@H]3C(=O)N[C@H](C(=O)N[C@H](C(=O)O)c4cc(O)cc(O)c4-c4cc3ccc4O)[C@H](O)c3ccc(c(Cl)c3)Oc3cc2cc(c3O[C@@H]2O[C@H](CO)[C@@H](O)[C@H](O)[C@H]2O[C@H]2C[C@](C)(N)[C@H](O)[C@H](C)O2)Oc2ccc(cc2Cl)[C@H]1O` the MIC range was 4 µg/mL (≈ 2.76 µM) (broth microdilution; vancomycin-intermediate clinical isolates).
The MIC90 of `CCOC(=O)COc1ccc2ccc3oc([N+](=O)[O-])cc3c2c1` is reported as 4 µg/mL (≈ 12.7 µM) (REMA).
With `CC(C)C[C@H](NC(=O)[C@H](CCCCN)NC(=O)OCC1c2ccccc2-c2ccccc21)C(=O)N[C@H](C(=O)N[C@@H](Cc1ccccc1)C(=O)N[C@@H](Cc1ccccc1)C(=O)N[C@@H](CCCCN)C(=O)NCC(=O)N[C@@H](Cc1ccccc1)C(=O)N[C@@H](C)C(=O)N[C@@H](Cc1c[nH]c2ccccc12)C(=O)N[C@@H](CC(N)=O)C(=O)N[C@H](C(=O)N[C@H]1CSSC[C@@H](C(=O)N[C@@H](Cc2c[nH]cn2)C(=O)N[C@@H](CCCNC(=N)N)C(=O)N[C@@H](CCCNC(=N)N)C(=O)N[C@@H](C)C(=O)N[C@@H](CC(N)=O)C(N)=O)NC(=O)[C@H](C(C)C)NC(=O)[C@H](CCCNC(=N)N)NC(=O)[C@H](C(C)C)NC(=O)CNC(=O)[C@H](CC(N)=O)NC(=O)[C@H](CCCNC(=N)N)NC(=O)[C@H](Cc2ccc(O)cc2)NC(=O)[C@H](C(C)C)NC1=O)C(C)C)C(C)C` the Emax was -5.76 log CFU (bactericidal activity; CGMCC 1.9; 24 h).
For `O=C(O)c1cn(C2CC2)c2cc(N3CCNCC3)c(F)cc2c1=O`, the biofilm inhibition was 1.5% (ATCC 33591 MRSA; 2×MIC).
Under “MIC fold increase”, `C/C(=C\C(=O)OCCCCCCCC(=O)Nc1c2sscc-2[nH]c1=O)[C@@H](O)[C@@H]1OC[C@H](C/C=C/[C@@H](C)[C@H](C)O)[C@@H](O)[C@H]1O` is recorded as 5 to 10 fold (COL MRSA IleRS G593D P606S; baseline: mutant over wild type).
`CC[C@H](C)[C@H](NC(=O)[C@H](Cc1ccc(O)cc1)NC(=O)[C@@H](NC(=O)[C@H](Cc1ccc(O)cc1)NC(=O)[C@@H]1CCCN1C(=O)[C@@H](NC(=O)[C@H](C)N)[C@@H](C)CC)[C@@H](C)CC)C(=O)N[C@@H](Cc1c[nH]c2ccccc12)C(=O)N[C@@H](CCCNC(=N)N)C(=O)N[C@@H](CC(C)C)C(=O)N[C@@H](CC(C)C)C(=O)N[C@@H](CCCNC(=N)N)C(=O)N[C@@H](CCCCN)C(=O)NCC(=O)O` has an MBC of 3.75 µM (≈ 6.61 µg/mL) (ATCC 19609; 18 h, 37 °C).
With `O=[N+]([O-])c1cc2c(ccc3cc(Br)ccc32)o1` the MIC90 was > 32 µg/mL (REMA).

A few entries again:
For `CCCCCCCCCCCc1c([N+](=O)[O-])oc2ccc3ccccc3c12`, the MIC90 was > 32 µg/mL (REMA).
`CC[C@H](C)[C@H](NC(=O)[C@H](Cc1c[nH]c2ccccc12)NC(=O)[C@@H](NC(=O)[C@H](Cc1ccc(O)cc1)NC(=O)[C@@H]1CCCN1C(=O)[C@@H](NC(=O)[C@H](C)N)[C@@H](C)CC)[C@@H](C)CC)C(=O)N[C@@H](Cc1ccc(O)cc1)C(=O)N[C@@H](CCCNC(=N)N)C(=O)N[C@@H](CC(C)C)C(=O)N[C@@H](CC(C)C)C(=O)N[C@@H](CCCNC(=N)N)C(=O)N[C@@H](CCCCN)C(=O)NCC(N)=O` gave an MBC of > 15 µM (ATCC 35556; 18 h, 37 °C).
